{"data": "Experimental data of several laboratories", "chain of UniProt Q6ZWH5 (whole entry, looked up)": "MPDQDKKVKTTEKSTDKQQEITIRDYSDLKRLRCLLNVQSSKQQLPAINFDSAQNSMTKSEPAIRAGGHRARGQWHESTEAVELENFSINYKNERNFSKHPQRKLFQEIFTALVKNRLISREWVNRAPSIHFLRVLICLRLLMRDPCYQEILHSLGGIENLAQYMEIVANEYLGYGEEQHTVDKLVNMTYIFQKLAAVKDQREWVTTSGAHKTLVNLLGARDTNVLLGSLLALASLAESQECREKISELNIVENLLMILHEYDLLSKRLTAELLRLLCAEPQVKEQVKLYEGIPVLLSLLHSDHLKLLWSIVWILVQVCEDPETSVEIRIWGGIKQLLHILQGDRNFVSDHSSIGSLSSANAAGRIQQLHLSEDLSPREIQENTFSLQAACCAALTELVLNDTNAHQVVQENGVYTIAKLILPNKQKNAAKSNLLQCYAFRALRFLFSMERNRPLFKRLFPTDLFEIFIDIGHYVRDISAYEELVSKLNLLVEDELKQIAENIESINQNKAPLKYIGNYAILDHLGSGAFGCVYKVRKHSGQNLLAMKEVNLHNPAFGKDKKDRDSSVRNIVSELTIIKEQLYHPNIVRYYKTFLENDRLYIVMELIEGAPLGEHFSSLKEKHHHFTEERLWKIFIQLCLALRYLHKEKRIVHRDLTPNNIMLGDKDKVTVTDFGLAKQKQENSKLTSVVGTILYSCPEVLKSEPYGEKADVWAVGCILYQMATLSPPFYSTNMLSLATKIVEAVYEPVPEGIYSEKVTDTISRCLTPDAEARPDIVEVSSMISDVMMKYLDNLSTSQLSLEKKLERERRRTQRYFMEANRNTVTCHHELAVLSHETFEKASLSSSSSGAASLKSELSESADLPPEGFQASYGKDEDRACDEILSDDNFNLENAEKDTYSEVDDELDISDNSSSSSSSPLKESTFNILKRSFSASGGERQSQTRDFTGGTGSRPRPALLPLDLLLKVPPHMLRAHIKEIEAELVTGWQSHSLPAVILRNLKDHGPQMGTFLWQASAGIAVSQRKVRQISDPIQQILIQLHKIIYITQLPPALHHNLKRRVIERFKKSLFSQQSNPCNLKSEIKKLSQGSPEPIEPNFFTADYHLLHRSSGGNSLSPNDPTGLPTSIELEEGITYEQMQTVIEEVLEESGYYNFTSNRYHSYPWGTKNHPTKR", "chain of UniProt Q16816 (whole entry, looked up)": "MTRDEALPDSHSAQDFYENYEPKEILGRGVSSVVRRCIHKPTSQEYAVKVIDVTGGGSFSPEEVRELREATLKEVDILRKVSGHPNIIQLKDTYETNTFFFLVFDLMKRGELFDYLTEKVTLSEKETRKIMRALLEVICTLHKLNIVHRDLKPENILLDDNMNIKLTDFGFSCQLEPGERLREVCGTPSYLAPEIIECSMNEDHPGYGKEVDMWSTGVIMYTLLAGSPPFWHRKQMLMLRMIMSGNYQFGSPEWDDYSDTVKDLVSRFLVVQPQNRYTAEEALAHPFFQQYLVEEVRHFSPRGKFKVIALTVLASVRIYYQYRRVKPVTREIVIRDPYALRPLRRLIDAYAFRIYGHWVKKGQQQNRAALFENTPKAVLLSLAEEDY", "chain of UniProt Q13882 (whole entry, looked up)": "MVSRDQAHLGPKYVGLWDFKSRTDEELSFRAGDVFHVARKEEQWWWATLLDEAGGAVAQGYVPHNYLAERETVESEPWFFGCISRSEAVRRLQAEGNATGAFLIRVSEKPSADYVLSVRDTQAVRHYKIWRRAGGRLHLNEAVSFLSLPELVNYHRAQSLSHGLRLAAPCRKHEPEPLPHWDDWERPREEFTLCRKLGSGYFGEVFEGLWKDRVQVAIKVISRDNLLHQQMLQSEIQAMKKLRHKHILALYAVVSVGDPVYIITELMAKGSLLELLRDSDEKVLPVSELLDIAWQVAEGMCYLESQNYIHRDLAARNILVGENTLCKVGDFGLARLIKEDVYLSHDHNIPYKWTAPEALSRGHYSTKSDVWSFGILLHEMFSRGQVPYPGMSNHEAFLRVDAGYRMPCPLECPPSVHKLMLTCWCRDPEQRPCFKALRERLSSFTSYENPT", "chain of UniProt P50750 (whole entry, looked up)": "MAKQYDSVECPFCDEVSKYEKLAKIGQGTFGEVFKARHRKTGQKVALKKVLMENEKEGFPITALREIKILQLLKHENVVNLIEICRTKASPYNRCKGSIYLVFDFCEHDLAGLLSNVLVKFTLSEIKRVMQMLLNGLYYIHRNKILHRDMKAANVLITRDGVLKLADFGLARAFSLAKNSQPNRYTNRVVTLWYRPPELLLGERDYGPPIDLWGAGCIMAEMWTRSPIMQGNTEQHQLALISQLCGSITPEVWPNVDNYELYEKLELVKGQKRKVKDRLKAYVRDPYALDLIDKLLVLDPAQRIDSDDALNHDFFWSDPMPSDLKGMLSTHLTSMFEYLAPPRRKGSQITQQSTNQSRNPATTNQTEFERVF"}
{"Structure (SMILES)": "NS(=O)(=O)OC[C@@H]1C[C@@H](n2ccc3c(N[C@H]4CCc5ccccc54)ncnc32)C[C@@H]1O", "test system": "human, plasma", "conditions": "intravenous, 35 mg/m², patients", "quantity": "Tmax", "result": "1.05 h"}
{"Structure (SMILES)": "CS(=O)(=O)n1cc2c(n1)CN([C@H]1CO[C@H](c3cc(F)ccc3F)[C@@H](N)C1)C2", "test system": "male human, plasma", "conditions": "oral, 10 mg, single dose, fasted", "quantity": "Tmax", "result": "1 h"}
{"Structure (SMILES)": "COc1cc(-c2cncc3c2CN(C)Cc2cc(N4CCNCC4)ccc2-3)cc(OC)c1OC", "target or system": "PHKG1 (Homo sapiens, UniProt Q16816)", "test": "enzyme activity, inhibitor", "conditions": "1 µM", "quantity": "remaining activity", "result": "112%"}
{"Structure (SMILES)": "CCCCC(=O)Nc1ccc(-c2ccc3ncn(CCC)c(=O)c3c2)cn1", "target or system": "NEK10 (Homo sapiens, UniProt Q6ZWH5)", "test": "binding, competition with immobilised ligand", "conditions": "0.5 µM", "quantity": "remaining binding", "result": "100%"}
{"Structure (SMILES)": "COc1ccc([C@@H](O)c2cc(-c3ncnc4cc(N5CCOCC5)ccc34)c(F)cc2Cl)nn1", "test system": "human, plasma", "conditions": "oral, 200 mg, multiple doses, once daily, patients", "quantity": "Tmax", "result": "2.28 h"}
{"Structure (SMILES)": "CC(C)n1nc(-c2ccc3oc(N)nc3c2)c2c(N)ncnc21", "test system": "human, plasma", "conditions": "oral, 20 mg, multiple doses, patients", "quantity": "Tmax", "result": "2.63 h"}
{"Structure (SMILES)": "CCCOc1ccc([C@H]2CNC(=O)N2c2ccc3[nH]cnc3c2)cc1", "test system": "human, plasma", "conditions": "oral, 200 mg, single dose, fasted, healthy volunteers", "quantity": "Tmax", "result": "1 h"}
{"Structure (SMILES)": "C=CC(=O)N1CCC(COCC(=O)N2CCN(c3nc(-c4cnc(N)nc4C(F)F)nc(N4CCOC[C@@H]4C)n3)CC2)CC1", "target or system": "PTK6 (Homo sapiens, UniProt Q13882)", "test": "binding, competition with immobilised ligand", "conditions": "1 µM", "quantity": "remaining binding", "result": "97%"}
{"Structure (SMILES)": "O=C(COc1ccc(Cl)cc1)NC12CC(c3nnc([C@H]4C[C@@H](OC(F)(F)F)C4)o3)(C1)C2", "test system": "human, plasma", "conditions": "oral, 200 mg, multiple doses, once daily, steady state, healthy volunteers", "quantity": "Tmax", "result": "4 h"}
{"Structure (SMILES)": "CN1CC[C@@H](c2c(O)cc(O)c3c(=O)cc(-c4ccc(C(F)(F)F)cc4Cl)oc23)[C@@H]1CO", "test system": "human, plasma", "conditions": "oral, 150 mg, patients", "quantity": "Tmax", "result": "4.2 h"}
{"Structure (SMILES)": "CC(C)(C)[C@@H]1NC(=O)O[C@@H]2CCC[C@H]2OC/C=C/C(F)(F)c2nc3ccccc3nc2O[C@@H]2C[C@@H](C(=O)N[C@]3(C(=O)NS(=O)(=O)C4(C)CC4)C[C@H]3C(F)F)N(C2)C1=O", "test system": "human, plasma", "conditions": "oral, single dose", "quantity": "Tmax", "result": "3.5 h"}
{"Structure (SMILES)": "CCc1nc2c(C)cc(N3CCN(CC(=O)N4CC(O)C4)CC3)cn2c1N(C)c1nc(-c2ccc(F)cc2)c(C#N)s1", "test system": "human, plasma", "conditions": "oral, 600 mg, fed, healthy volunteers", "quantity": "Tmax", "result": "2 h"}
{"Structure (SMILES)": "Cc1cc([C@@H](C)Nc2ccccc2C(=O)O)c2nc(N3CCC(F)(F)CC3)c(C#N)c(=O)n2c1", "target or system": "CDK9 (Homo sapiens, UniProt P50750)", "test": "binding, competition with immobilised ligand", "conditions": "10 µM", "quantity": "remaining binding", "result": "95%"}
{"note": "Excerpt of the above:"}
{"Structure (SMILES)": "CCCCC(=O)Nc1ccc(-c2ccc3ncn(CCC)c(=O)c3c2)cn1", "target or system": "NEK10 (Homo sapiens, UniProt Q6ZWH5)", "test": "binding, competition with immobilised ligand", "conditions": "0.5 µM", "quantity": "remaining binding", "result": "100%"}
{"Structure (SMILES)": "COc1ccc([C@@H](O)c2cc(-c3ncnc4cc(N5CCOCC5)ccc34)c(F)cc2Cl)nn1", "test system": "human, plasma", "conditions": "oral, 200 mg, multiple doses, once daily, patients", "quantity": "Tmax", "result": "2.28 h"}
